# Published values from different studies.
# Parts stem from different laboratories: compare values within a part only. Substitutions count along the parent as printed.

# Sample 1
# Target: Ras GTPase-activating protein-binding protein 1, full length (G3BP1, Homo sapiens, UniProt Q13283)
# UniProt Q13283, sequence (whole entry, looked up): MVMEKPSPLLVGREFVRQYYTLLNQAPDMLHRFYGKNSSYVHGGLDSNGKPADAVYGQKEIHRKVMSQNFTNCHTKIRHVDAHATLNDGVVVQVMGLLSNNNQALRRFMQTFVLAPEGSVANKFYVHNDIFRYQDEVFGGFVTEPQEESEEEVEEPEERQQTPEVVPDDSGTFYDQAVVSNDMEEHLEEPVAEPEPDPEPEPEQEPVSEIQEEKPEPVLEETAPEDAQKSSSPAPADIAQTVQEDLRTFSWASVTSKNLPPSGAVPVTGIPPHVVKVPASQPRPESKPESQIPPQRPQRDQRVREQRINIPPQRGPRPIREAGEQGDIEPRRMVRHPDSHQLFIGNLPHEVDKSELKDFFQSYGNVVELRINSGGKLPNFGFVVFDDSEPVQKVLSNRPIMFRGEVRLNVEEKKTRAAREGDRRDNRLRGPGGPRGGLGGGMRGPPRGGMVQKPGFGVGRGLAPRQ
# Technique: RNA Bind-n-Seq
# Molecule type: RNA
# Matrix: in vitro
# Tested at: 200 nM
# Notes: whole 134-nt RNA, ends assumed
# Added: 150 mM KCl
# Reference: input library
# Direction: higher = stronger binding
# Shared flanks, not repeated: GGGAGUUCUACAGUCCGACGAUC … UGGAAUUCUCGGGUGUCAAGG
Sequence,log2 enrichment
GCAGGAAGUAAAAACAAAUGGAAAUGCUUCGGAUAGUGGCAGGGGUGGGGGUUGCUAAGGAAAGGGUGGGAUGGGAAUGGGUAAAGAGUU,0.81
UGGGAGGUGGAUUUUGUUUAUUUUUUUAGCUCACUUCCAGGGGUGGGAAUUUUUUUUUAAUAUGUGUCAUGAAUAAAGUUGUUUUUGAAA,0.39
GCAGGAAGCAAAAACAAAUGGAAAUGCUUCGGAUAGUGGCAGGGGUGGGGGUUGCUAAGGAAAGGGUGGGAUGGGAGUGGGUAAAGAGUU,0.952
UAACUUUAGAGGAGGAUCUGAUGGAUAUGGCAGUGGACGUGGAUUUGGGAAUGGCUAUAAUGGGUAUGGAGGAGGACCUGGAGGUGGCAA,0.288
GCAGGAAGUAAAAACAAAUGGAAAUGCUUCGGAUAGUGGCAGGGGUGGGGGUUGCUAAGGAAAGGGUGGGAUGGGACUGGGUAAAGAGUU,1.13
GCAGGAAGUAAAAACAAAUGGAAAUGCUUCGGAUAGUGGCAGGGGUGGGGGUUGCUAAGGAAAGGGUGGGAUGGGAGUGGGUAAUGAGUU,1.2
UCAAGUCCUGUGCUACACAUCGUAUGUACCGAAUCGGUGGUUUUUUUGGUUUGGAAAGUAUUAUGUUACGCCGUUCGGAUCUGCACUUCC,-0.977
AAGUCCUGUGCUACACAUCGUAUGUACCGAAUCGGGUUUGGGAAAGGGUUUUUGGGAAAGUAUUAUGUUACGCCGUUCGGAUCUGCACUU,0.244
UAACUUUAGAGGAGGAUCUGAUGGAUAUGGCAGUGGACGUGGAUUUGGGGAAGGCUAUAAUGGGUAUGGAGGAGGACCUGGAGGUGGCAA,0.231
UCAAGUCCUGUGCUACACAUCGUAUGUACCGAAUCGGGAAGGGAAGGGGAAGGGAAAGUAUUAUGUUACGCCGUUCGGAUCUGCACUUCC,1.19

# Sample 2
# Target: CCNA1, cyclin fold, Cln2 fusion (human)
# Technique: yeast growth competition, sequencing
# Matrix: yeast
# Notes: weak parent motif
# Reference: not given
# Direction: higher = stronger binding
# Starting sequence: ORC1 docking peptide (human); PRARKRLELGNLG
Change,normalised enrichment score
PRARKRLILGNLG [E8I],0.404
QRARKRLELGNLG [P1Q],0.635
PEARKRLELGNLG [R2E],0.532
PRARKELELGNLG [R6E],0.175
PRARKRLFLGNLG [E8F],0.31
PTARKRLELGNLG [R2T],0.568
PRARKYLELGNLG [R6Y],0.402
PRARKRDELGNLG [L7D],0.351
PRARKRLESGNLG [L9S],0.589
PRARKRLELPNLG [G10P],0.268
WRARKRLELGNLG [P1W],0.272
PRARSRLELGNLG [K5S],0.149
PLARKRLELGNLG [R2L],0.107
PRAKKRLELGNLG [R4K],0.151
PPARKRLELGNLG [R2P],0.316
PRAAKRLELGNLG [R4A],0.199
PRARKRLQLGNLG [E8Q],0.443
PRARKRLMLGNLG [E8M],0.217
PRARKRLELGNHG [L12H],0.662
PRARKNLELGNLG [R6N],0.306
PRARPRLELGNLG [K5P],0.186
PRARKRLELGNEG [L12E],0.551
PRARKRLELGNLM [G13M],0.342
PGARKRLELGNLG [R2G],0.319

# Sample 3
# Target: Prothrombin, mature alpha-thrombin (F2, Homo sapiens, UniProt P00734)
# Technique: aptamer microarray, sandwich
# Molecule type: DNA with 2'F-ANA
# Matrix: in vitro
# Tested at: 200 nM
# Notes: whole 15-mer aptamer, many near background
# Added: Cy3 exosite-II aptamer, 400 nM
# Direction: higher = stronger binding
# Sequence: GGTTGGTGTGGTTGG
Modification,mean fluorescence intensity
2'F-ANA at 1 3 4 5 6 7 8 10 11 12 14,49.3 a.u.
2'F-ANA at 1 2 6 8 9 10 12 13 15,65.4 a.u.
2'F-ANA at 1 2 3 6 9 10 12,73.9 a.u.
2'F-ANA at 1 2 3 4 6 7 8 9 11 12 13,207 a.u.
2'F-ANA at 1 3 4 5 8 9 10 11 12 13 15,50 a.u.
2'F-ANA at 1 3 4 7 9 12 15,433 a.u.
2'F-ANA at 2 4 6 7 8 9 10 12,129 a.u.
2'F-ANA at 1 2 11 14,56.6 a.u.
2'F-ANA at 4 5 7 8 9 11 12 13 15,76.1 a.u.
2'F-ANA at 1 3 7 9 10 13 14,123 a.u.
2'F-ANA at 2 3 5 6 7 8 9 10 15,52.3 a.u.
2'F-ANA at 4 5 6 8 9 10 13,46.6 a.u.
2'F-ANA at 2 4 5 7 8 9 11 12 13 15,76.6 a.u.
2'F-ANA at 2 3 6 7 8 10 11 12 13 14 15,252 a.u.
2'F-ANA at 1 2 5 6 8 9 13,60.4 a.u.
2'F-ANA at 3 4 5 7 8 9 11 14 15,51.3 a.u.
2'F-ANA at 1 2 3 6 7 9 12 13 14,90.9 a.u.
2'F-ANA at 1 9 10 15,58 a.u.
2'F-ANA at 2 4 6 14,91.3 a.u.
2'F-ANA at 1 2 3 4 8 14,69.4 a.u.
2'F-ANA at 2 11 12 13,588 a.u.

# Sample 4
# Target: ABI1, truncated, D143A, DHFR fusion (Arabidopsis thaliana)
# Technique: DHFR PCA, deep sequencing
# Matrix: yeast
# Notes: methotrexate growth selection, single substitutions
# Added: (+)-ABA 0.39 µM
# Reference: wild-type fitted maximum
# Direction: higher = stronger binding
# Starting sequence: PYL1, truncated, DHFR fusion (Arabidopsis thaliana); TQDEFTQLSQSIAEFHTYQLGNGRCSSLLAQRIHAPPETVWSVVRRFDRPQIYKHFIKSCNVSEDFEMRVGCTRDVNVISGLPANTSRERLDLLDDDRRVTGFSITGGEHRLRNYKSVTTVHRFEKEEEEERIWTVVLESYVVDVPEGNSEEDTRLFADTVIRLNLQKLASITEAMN
Change,relative binding score [%]
T6W,36.2
I52K,7.76
F124R,-7.37
I33Q,-4.25
L94V,-0.621
P36Y,5.46
N85V,70
T106M,51.5
G148Y,-29.3
A170H,-31.4
E4G,12.3
Q51P,-10.5
P37Q,18
H55L,49.6
